Measurements of several laboratories.
Compare with care: the assays were run in different laboratories. “And” joins repeats or separate records; there may be more than shown. ± gives the spread as reported.
U2AF2: U2AF2 148-342 (Homo sapiens, UniProt P26368)
UniProt P26368, sequence (whole entry, looked up): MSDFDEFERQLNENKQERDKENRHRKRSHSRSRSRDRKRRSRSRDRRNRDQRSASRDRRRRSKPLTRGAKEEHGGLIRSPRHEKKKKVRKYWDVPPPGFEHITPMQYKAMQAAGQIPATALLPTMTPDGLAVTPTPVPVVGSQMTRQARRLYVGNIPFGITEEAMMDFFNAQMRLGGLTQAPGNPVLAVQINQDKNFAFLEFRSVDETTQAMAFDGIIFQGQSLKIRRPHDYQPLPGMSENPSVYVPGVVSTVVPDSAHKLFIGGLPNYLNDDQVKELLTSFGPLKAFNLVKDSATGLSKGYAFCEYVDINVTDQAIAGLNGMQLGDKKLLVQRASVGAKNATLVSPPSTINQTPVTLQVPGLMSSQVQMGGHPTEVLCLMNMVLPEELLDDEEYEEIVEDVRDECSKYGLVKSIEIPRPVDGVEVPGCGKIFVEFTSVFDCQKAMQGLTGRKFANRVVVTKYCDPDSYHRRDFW
B1: human AHCYL1; sequence looked up; chain SMPDAMPLPGVGEELKQAKEIEDAEKYSFMATVTKAPKKQIQFADDMQEFTKFPTKTGRRSLSRSISQSSTDSYSSAASYTDSSDDEVSPREKQQTNSKGSSNFCVKNIKQAEFGRREIEIAEQDMSALISLRKRAQGEKPLAGAKIVGCTHITAQTAVLIETLCALGAQCRWSACNIYSTQNEVAAALAEAGVAVFAWKGESEDDFWWCIDRCVNMDGWQANMILDDGGDLTHWVYKKYPNVFKKIRGIVEESVTGVHRLYQLSKAGKLCVPAMNVNDSVTKQKFDNLYCCRESILDGLKRTTDVMFGGKQVVVCGYGEVGKGCCAALKALGAIVYITEIDPICALQACMDGFRVVKLNEVIRQVDVVITCTGNKNVVTREHLDRMKNSCIVCNMGHSNTEIDVTSLRTPELTWERVRSQVDHVIWPDGKRVVLLAEGRLLNLSCSTVPTFVLSITATTQALALIELYNAPEGRYKQDVYLLPKKMDEYVASLHLPSFDAHLTELTDDQAKYLGLNKNGPFKPNYYRY
B2: plakoglobin (human); sequence looked up; chain MEVMNLMEQPIKVTEWQQTYTYDSGIHSGANTCVPSVSSKGIMEEDEACGRQYTLKKTTTYTQGVPPSQGDLEYQMSTTARAKRVREAMCPGVSGEDSSLLLATQVEGQATNLQRLAEPSQLLKSAIVHLINYQDDAELATRALPELTKLLNDEDPVVVTKAAMIVNQLSKKEASRRALMGSPQLVAAVVRTMQNTSDLDTARCTTSILHNLSHHREGLLAIFKSGGIPALVRMLSSPVESVLFYAITTLHNLLLYQEGAKMAVRLADGLQKMVPLLNKNNPKFLAITTDCLQLLAYGNQESKLIILANGGPQALVQIMRNYSYEKLLWTTSRVLKVLSVCPSNKPAIVEAGGMQALGKHLTSNSPRLVQNCLWTLRNLSDVATKQEGLESVLKILVNQLSVDDVNVLTCATGTLSNLTCNNSKNKTLVTQNSGVEALIHAILRAGDKDDITEPAVCALRHLTSRHPEAEMAQNSVRLNYGIPAIVKLLNQPNQWPLVKATIGLIRNLALCPANHAPLQEAAVIPRLVQLLVKAHQDAQRHVAAGTQQPYTDGVRMEEIVEGCTGALHILARDPMNRMEIFRLNTIPLFVQLLYSSVENIQRVAAGVLCELAQDKEAADAIDAEGASAPLMELLHSRNEGTATYAAAVLFRISEDKNPDYRKRVSVELTNSLFKHDPAAWEAAQSMIPINEPYGDDMDATYRPMYSSDVPLDPLEMHMDMDGDYPIDTYSDGLRPPYPTADHMLA
B3: FasL; sequence looked up; chain QIGHPSPPPEKKELRKVAHLTGKSNSRSMPLEWEDTYGIVLLSGVKYKKGGLVINETGLYFVYSKVYFRGQSCNNLPLSHKVYMRNSKYPQDLVMMEGKMMSYCTTGQMWARSSYLGAVFNLTSADHLYVNVSELSLVNFEESQTFFGLYKL
UniProt Q00535, sequence (whole entry, looked up): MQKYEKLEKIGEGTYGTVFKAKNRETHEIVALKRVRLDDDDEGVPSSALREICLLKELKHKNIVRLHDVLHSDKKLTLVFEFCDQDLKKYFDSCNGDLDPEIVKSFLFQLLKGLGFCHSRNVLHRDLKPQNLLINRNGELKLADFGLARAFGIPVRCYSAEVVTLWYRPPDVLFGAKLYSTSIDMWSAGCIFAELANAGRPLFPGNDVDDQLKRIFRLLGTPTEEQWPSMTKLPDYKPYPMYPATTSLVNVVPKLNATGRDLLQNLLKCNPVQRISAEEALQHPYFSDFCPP
UniProt P29055, sequence (whole entry, looked up): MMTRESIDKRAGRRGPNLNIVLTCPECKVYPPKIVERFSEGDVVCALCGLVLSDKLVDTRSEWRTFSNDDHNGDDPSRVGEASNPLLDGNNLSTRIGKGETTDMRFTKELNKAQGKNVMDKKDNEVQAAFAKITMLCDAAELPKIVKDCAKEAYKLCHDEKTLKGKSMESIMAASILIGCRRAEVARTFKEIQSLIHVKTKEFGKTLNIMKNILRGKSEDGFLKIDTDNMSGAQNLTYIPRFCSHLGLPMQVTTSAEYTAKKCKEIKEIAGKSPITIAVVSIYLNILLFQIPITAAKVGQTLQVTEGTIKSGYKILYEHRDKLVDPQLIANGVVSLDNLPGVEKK

Substance	target or system	assay	test system	conditions	how to read	endpoint	value
YTDPIPLGM	Jurkat expressing engineered TCR	NFAT-eGFP reporter, fluorescence microscopy	peptide	concentration not given, HLA-A*01:01 on EL4 cells		GFP-positive cells	0.466%
GCUUUUGUA (ssRNA)	U2AF2	sequencing of bound RNA	RNA	motif only		Kd	900 nM
evodiamine	HUVEC	cytotoxicity				IC50	3700 ± 2200 nM
cullin-4B, human	CYB5R4 knockout human cells	PP4 interaction, 3xFLAG-PP4C IP-MS		concentration not given	relative to: CYB5R4 KO over parental	log2 fold change	1.5
ETDPIGYDK	Jurkat expressing engineered TCR	NFAT-eGFP reporter, fluorescence microscopy	peptide	concentration not given, HLA-A*01:01 on EL4 cells		GFP-positive cells	0.395%
B1 (human AHCYL1)	CYB5R4 knockout human cells	PP4 interaction, 3xFLAG-PP4C IP-MS		concentration not given	relative to: CYB5R4 KO over parental	log2 fold change	-0.95
YEQDPWGVKWWY	mouse bone marrow-derived macrophages	qPCR, item: Arg-1	peptide	concentration not given, with: IL-4		mRNA level	decreased
catalase	HT-29	western blot, item: p27		concentration not given, 48 h		protein level	increased
epoetin alfa	UT7/EPO	RT-qPCR, item: CISH		concentration not given, 90 min, normalized to HPRT1	relative to: vehicle	mRNA level	26.5 fold
CAAATGTATGCACCATATCCATTCTAAACATAGTTTCAAGTCAATCGGTCC (dsDNA; 5'-amino-C6 primer)	SUA7 full length assumed (Saccharomyces cerevisiae, UniProt P29055)	array	double-stranded DNA, one strand shown	TFIIB alone		Kd	3.37 ± 2 nM
KEAFWDRCLSVINLCSSKMLQINA	Cyclin-dependent kinase 5, with p25 (CDK5, Homo sapiens, UniProt Q00535)	phosphotransferase activity, radiometric	peptide	concentration not given, 10% DMSO, with: histone substrate	relative to: p5-WT peptide	activity change	58%
B2 (plakoglobin)	CYB5R4 knockout human cells	PP6 interaction, 3xFLAG-PP6C IP-MS		concentration not given	relative to: CYB5R4 KO over parental	log2 fold change	0.61
GTDPIPLGA	Jurkat expressing engineered TCR	NFAT-eGFP reporter, fluorescence microscopy	peptide	concentration not given, HLA-A*01:01 on EL4 cells		GFP-positive cells	0.496%
human RAB7A	CYB5R4 knockout human cells	PP4 interaction, 3xFLAG-PP4C IP-MS		concentration not given	relative to: CYB5R4 KO over parental	log2 fold change	2.56
CAUUUUCAU (ssRNA)	U2AF2	sequencing of bound RNA	RNA	motif only		Kd	980 nM
QLDPIGQEF	Jurkat expressing engineered TCR	NFAT-eGFP reporter, fluorescence microscopy	peptide	concentration not given, HLA-A*01:01 on EL4 cells		GFP-positive cells	0.466%
Peginesatide	UT7/EPO	tyrosine phosphorylation, LC-MS/MS phosphoproteomics, trypsin, item: SHC1 tyrosine 427		10 nM, 15 min, with: 10 U/mL EPO	relative to: vehicle	phosphorylation level	14.7 fold
PTBP3 (human)	CYB5R4 knockout human cells	PP4 interaction, 3xFLAG-PP4C IP-MS		concentration not given	relative to: CYB5R4 KO over parental	log2 fold change	-1.25
B3 (FasL)	mouse thymocytes	inducer, flow cytometry		concentration not given		PI-positive cells	5.6% and 5.4%
MTVCNASQRQAHAQATAVSL	HCC1359	phage binding	peptide		relative to: targeting over control phage	selectivity ratio	0.72 ± 0.36
YTDIIPYGY	Jurkat expressing engineered TCR	NFAT-eGFP reporter, fluorescence microscopy	peptide	concentration not given, HLA-A*01:01 on EL4 cells		GFP-positive cells	0.39%
human RGPD4	CYB5R4 knockout human cells	PP4 interaction, 3xFLAG-PP4C IP-MS		concentration not given	relative to: CYB5R4 KO over parental	log2 fold change	-1.06

Some of these lines once more:
Substance	target or system	assay	test system	conditions	how to read	endpoint	value
catalase	HT-29	western blot, item: p27		concentration not given, 48 h		protein level	increased
